Assay results from different studies.
Lines come from different studies, so protocols differ. Values joined by “and” are separate records of one study, mostly repeats; a detail may differ. ± gives the spread as reported.
DRD3: D(3) dopamine receptor (DRD3, Homo sapiens, UniProt P35462)
TNKS2: Poly [ADP-ribose] polymerase tankyrase-2 (TNKS2, Homo sapiens, UniProt Q9H2K2)
CDK2 with cyclin A: Cyclin-dependent kinase 2, with cyclin A (CDK2, Homo sapiens, UniProt P24941)

Structure (SMILES) = Cc1[nH]cc(S(=O)(=O)Nc2ccc(C(F)(F)F)c(Cl)c2)c1C(=O)N1CCC(F)(F)C1; tested on = DRD3; assay = Go activation, antagonist, BRET; conditions = with: dopamine; endpoint = IC50; value = > 100 µM
Structure (SMILES) = CCc1nc(C(N)=O)c(Nc2ccc(N3CCC(N4CCN(C)CC4)CC3)c(OC)c2)nc1NC1CCOCC1; tested on = SLC47A1 (Homo sapiens, UniProt Q96FL8); assay = MATE1-mediated TEA uptake, inhibitor; system = HEK293 expressing MATE1; conditions = 15 min, with: radiolabelled tetraethylammonium; endpoint = IC50; value = 0.035 µM
Structure (SMILES) = CC(C)C[C@H](NC(=O)C[C@H](O)[C@H](CC(C)C)NC(=O)[C@H](Cc1c[nH]cn1)NC(=O)CNC(=O)[C@@H](NC(=O)[C@H](C)NC(=O)[C@H](Cc1c[nH]c2ccccc12)NC(=O)[C@H](CCC(N)=O)NC(=O)[C@@H](Cc1ccccc1)NC(=O)COCCOCCNC(=O)CCC(C(=O)O)N1CCN(CC(=O)O)CCN(CC(=O)O)CCN(CC(=O)O)CC1)C(C)C)C(N)=O (stereo partly drawn) [lutetium-177 labelled]; system = female BALB/c nu/nu mice, kidneys; conditions = intravenous, 100 pmol, 90 h, with: PA 300 µg; endpoint = tissue uptake; value = 0.23 ± 0.04 %ID/g
Structure (SMILES) = Cc1[nH]c(C)c(S(=O)(=O)Nc2ccc(C3(C)CCO3)c(Cl)c2)c1C(=O)N1CCC(F)(F)C1 (stereo not drawn); tested on = DRD3; assay = Go activation, antagonist, BRET; conditions = with: dopamine; endpoint = IC50; value = > 100 µM
Structure (SMILES) = CC(C)C[C@H](N)C(=O)N[C@@H](C)C(=O)N[C@@H](CCCCN)C(=O)N[C@H](C(=O)N[C@@H](CCCCN)C(=O)N[C@@H](CCCNC(=N)N)C(=O)N[C@@H](CCCCN)C(=O)N[C@@H](CCCNC(=N)N)C(=O)N[C@@H](CCCCN)C(=O)N[C@@H](CCCCN)C(=O)O)[C@@H](C)O; tested on = Coagulation factor V, activated factor Va (F5, Homo sapiens, UniProt P12259); assay = prothrombinase activity, inhibitor; endpoint = IC50; value = 17 µM
Structure (SMILES) = COc1cccc(Cn2nnc3c4ccc(F)cc4c(=O)[nH]c32)c1; tested on = TNKS2; assay = inhibitor; endpoint = IC50; value = 0.107 µM
Structure (SMILES) = O=C(O)CC(=O)C(=O)O; tested on = HIF1AN (Homo sapiens, UniProt Q9NWT6, Q147A); assay = enzyme activity, inhibitor; conditions = pH 7; endpoint = IC50; value = > 1000 µM
Structure (SMILES) = c1csc(CNc2cc[nH]n2)c1; tested on = human peripheral blood lymphocytes (female); conditions = 2000 µg/mL, 4 h, repeat, with: without S9; endpoint = cells with structural aberrations; value = 5%
Structure (SMILES) = Cc1ccc(NS(=O)(=O)c2c(C)[nH]c(C)c2C(=O)N2CCC(F)(F)C2)cc1N(C)C; tested on = DRD3; assay = Go activation, antagonist, BRET; conditions = with: dopamine; endpoint = IC50; value = > 100 µM
Structure (SMILES) = Cn1cc(-c2ccc(-c3cncc(Cl)c3N3CCC4(CCNC4=O)CC3)cc2)cn1; tested on = COLO 205; assay = gene expression, microarray, refers to: SLC2A5 (GLUT5) mRNA; conditions = concentration not given, 6 h; how to read = relative to: untreated cells; endpoint = log2 fold change; value = 1.8
Structure (SMILES) = COc1ccc(F)cc1C(=O)NCc1ccc(-c2nn([C@@H](C)C(F)(F)F)c(N)c2C(N)=O)cc1; tested on = FYN (Homo sapiens, UniProt P06241); assay = target engagement, NanoBRET tracer displacement; system = HEK293; how to read = above top tested dose; endpoint = IC50; value = > 5 µM
Structure (SMILES) = O=c1[nH]c2c(nnn2Cc2ccccc2)c2ccc(F)cc12; tested on = TNKS2; assay = inhibitor; endpoint = IC50; value = 0.0813 µM
Structure (SMILES) = O=C(N/N=C/c1ccc(C(F)(F)F)nc1)c1cc2c(s1)CCCC2; tested on = dxs (Deinococcus radiodurans, UniProt Q9RUB5); endpoint = IC50; value = 53.4 µM and 48.8 µM
Structure (SMILES) = O=P(O)(O)Oc1cccc(OP(=O)(O)O)c1OP(=O)(O)O; tested on = INPPL1 (Homo sapiens, UniProt O15357); assay = enzyme activity, inhibitor, malachite green phosphate; conditions = 5 min, 30 °C, untagged enzyme, with: Ins(1,3,4,5)P4 100 µM; endpoint = IC50; value = > 1000 µM
Structure (SMILES) = CN1CCN(c2ccc(Nc3ncc4cc(C#N)c(=O)n(C5CCCC5)c4n3)cc2)CC1; tested on = TAOK2 (Homo sapiens, UniProt Q9UL54); endpoint = IC50; value = 0.0739 µM
Structure (SMILES) = Cc1ccc(NS(=O)(=O)c2c(C)[nH]c(C)c2C(=O)NC2CCCC2)cc1Cl; tested on = DRD3; assay = β-arrestin recruitment, antagonist, PathHunter; conditions = with: dopamine EC80; endpoint = IC50; value = > 100 µM
Structure (SMILES) = O=C(O)CC(O)(CC(=O)O)C(=O)O; tested on = HIF1AN (Homo sapiens, UniProt Q9NWT6, E105A); assay = enzyme activity, inhibitor; conditions = pH 7; endpoint = IC50; value = > 1000 µM
Structure (SMILES) = Cc1ccc(NS(=O)(=O)CCC(=O)N[C@@H](C)CC(=O)N2CCCC2)cc1Cl; tested on = DRD3; assay = β-arrestin recruitment, antagonist, PathHunter; conditions = with: dopamine EC80; endpoint = IC50; value = > 100 µM
Structure (SMILES) = CN1CCC(CNc2ccc3ncc(-c4cccc(OC(F)(F)F)c4)n3n2)CC1; tested on = CHRM3 (Homo sapiens, UniProt P20309); assay = antagonist, cell-based; endpoint = IC50; value = 8.69 µM
Structure (SMILES) = CNCc1ccc(-c2[nH]c3cc(F)cc4c3c2CCNC4=O)cc1; assay = refers to: headache; system = human patients; conditions = oral, 600 mg twice daily, grade 1; endpoint = patients with adverse event; value = 7.7%
Structure (SMILES) = CC(C)Oc1c(NC(=O)c2ccc(NC(=O)[C@H](CC(N)=O)NC(=O)c3cc(F)c(/N=N/c4c(F)cccc4F)c(F)c3)cc2)ccc(C(=O)N/N=C/c2ccc(C(=O)O)s2)c1O; tested on = DNA gyrase (gyrA/gyrB, Escherichia coli, UniProt P0AES4+P0AES6); assay = DNA supercoiling, inhibitor; conditions = 30 min, 37 °C, after 1 h irradiation at 365 nm; endpoint = IC50; value = > 25 µM
Structure (SMILES) = Cc1nc2sccn2c(=O)c1CCN1CCC(=C(c2ccc(F)cc2)c2ccc(F)cc2)CC1; tested on = Diacylglycerol kinase alpha (Rattus norvegicus, UniProt P51556); assay = kinase activity, inhibitor; system = HEK293T cell lysate; conditions = with: diacylglycerol liposomes; endpoint = IC50; value = 27.4 µM
Structure (SMILES) = O=c1[nH]c2c(nnn2C2CCCCC2)c2ccccc12; tested on = TNKS2; assay = ADP-ribosyltransferase activity, inhibitor, NAD+ consumption fluorescence; endpoint = IC50; value = 1.29 µM
Structure (SMILES) = [Cl-].[Cl-].[Zn+2]; tested on = HVCN1 (Homo sapiens, UniProt Q96D96, E119H); assay = whole-cell voltage clamp; conditions = 80 mV, open probability 0.8; endpoint = IC50; value = 0.51 µM
Structure (SMILES) = O=c1[nH]c2c(nnn2Cc2ccc(C(F)(F)F)cc2)c2ccc(F)cc12; tested on = TNKS2; assay = ADP-ribosyltransferase activity, inhibitor, NAD+ consumption fluorescence; endpoint = IC50; value = 0.0427 µM
Structure (SMILES) = Cc1[nH]c(C)c(S(=O)(=O)N2CCC(F)(F)C2)c1S(=O)(=O)N1CCC(F)(F)C1; tested on = DRD3; assay = β-arrestin recruitment, antagonist, PathHunter; conditions = with: dopamine EC80; endpoint = IC50; value = > 100 µM
Structure (SMILES) = COc1ccc(-n2c(SCC(N)=O)nnc2-c2cccs2)cc1; tested on = CDK2 with cyclin A; endpoint = Kd; value = > 100 µM
Structure (SMILES) = CCCN(CCC)C(=O)c1c(C)[nH]c(C)c1S(=O)(=O)Nc1ccc(C(F)(F)F)c(Cl)c1; tested on = DRD3; assay = β-arrestin recruitment, antagonist, PathHunter; conditions = with: dopamine EC80; endpoint = IC50; value = > 100 µM
Structure (SMILES) = C=CC(=O)c1ccc2ccccc2c1; tested on = F13A1 (Homo sapiens, UniProt P00488); assay = crosslinking activity; conditions = with: DTT; endpoint = IC50; value = > 20 µM
Structure (SMILES) = CCn1ncc2c1-c1cnc(N)c(c1)O[C@H](C)c1cc(F)ccc1-c1nn(C)nc1C2; tested on = NTRK1/Tropomyosin alpha-3 chain (Homo sapiens, UniProt P04629+P06753); assay = cell viability; endpoint = IC50; value = 0.33 µM
Structure (SMILES) = Cc1[nH]c(C)c(S(=O)(=O)Nc2ccnc3c(C(F)(F)F)cccc23)c1C(=O)N1CCC(F)(F)C1; tested on = DRD3; assay = β-arrestin recruitment, antagonist, PathHunter; conditions = with: dopamine EC80; endpoint = IC50; value = > 100 µM
Structure (SMILES) = COC(=O)c1ccccc1Oc1nc(NC(C)C)nc(NC(C)C)n1; tested on = CDK2 with cyclin A; endpoint = Kd; value = > 100 µM
Structure (SMILES) = CC(C)(C)c1ccc(Cn2nnc3c4ccc(F)cc4c(=O)[nH]c32)cc1; tested on = TNKS2; assay = ADP-ribosyltransferase activity, inhibitor, NAD+ consumption fluorescence; endpoint = IC50; value = 0.0933 µM
Structure (SMILES) = N#CSc1cc(SC#N)c(N)nc1N; tested on = OTUB1 (Homo sapiens, UniProt Q96FW1); assay = deubiquitinase activity, inhibitor, MALDI-TOF DUB; conditions = 30 °C, 35 min pre-incubation; endpoint = IC50; value = 2.16 µM
Structure (SMILES) = CC(C)[C@H](NC(=O)[C@H](Cc1ccc(O)cc1)NC(=O)[C@H](Cc1ccc(O)cc1)NC(=O)[C@@H]1CCCN1C(=O)[C@H](CCC(=O)O)NC(=O)[C@H](CCC(=O)O)NC(=O)[C@H](Cc1c[nH]c2ccccc12)NC(=O)[C@@H]1CCCN1C(=O)[C@@H](NC(=O)[C@H](CCC(N)=O)NC(=O)c1ccc2c(c1)C(=O)OC21c2ccc(O)cc2Oc2cc(O)ccc21)C(C)C)C(=O)N[C@H](C(=O)N[C@@H](CCCCN)C(=O)N[C@@H](CCCCN)C(=O)N[C@@H](CO)C(=O)N[C@@H](CO)C(=O)NCC(=O)NCC(N)=O)C(C)C; system = human, plasma; conditions = intravenous infusion, 400 mg, predose 0 min, day 1; endpoint = total plasma concentration; value = not detected
Structure (SMILES) = CC[C@@H]1[C@H](F)C(=O)N[C@@H]1COc1nccc2cc(C(N)=O)c(OC)cc12; tested on = MAP2K4 (Homo sapiens, UniProt P45985); assay = ATP-site probe binding, ActivX profiling; system = THP-1 cell lysate; conditions = Lys2 site; endpoint = IC50; value = > 5 µM

Some of these lines once more:
Structure (SMILES) = Cc1ccc(NS(=O)(=O)CCC(=O)N[C@@H](C)CC(=O)N2CCCC2)cc1Cl; tested on = DRD3; assay = β-arrestin recruitment, antagonist, PathHunter; conditions = with: dopamine EC80; endpoint = IC50; value = > 100 µM
Structure (SMILES) = COc1ccc(-n2c(SCC(N)=O)nnc2-c2cccs2)cc1; tested on = CDK2 with cyclin A; endpoint = Kd; value = > 100 µM
Structure (SMILES) = CNCc1ccc(-c2[nH]c3cc(F)cc4c3c2CCNC4=O)cc1; assay = refers to: headache; system = human patients; conditions = oral, 600 mg twice daily, grade 1; endpoint = patients with adverse event; value = 7.7%
